Measured values collected from several papers.
Every numbered part comes from another study and shows a few of its results, in no order. Substitutions count along the parent as printed.

Sample 1 — method: protein binding microarray; molecule type: double-stranded DNA, one strand shown; matrix: in vitro; concentration: not given; relative to: not given; direction: higher = stronger binding; measurement: E-score
Target: Histone acetyltransferase KAT6A, both winged helices, GST fusion (KAT6A, Homo sapiens, UniProt Q92794, residues 1-181)
Notes: 8-mer, flanks averaged, mean of 2 arrays, mostly near background
Target sequence (chain): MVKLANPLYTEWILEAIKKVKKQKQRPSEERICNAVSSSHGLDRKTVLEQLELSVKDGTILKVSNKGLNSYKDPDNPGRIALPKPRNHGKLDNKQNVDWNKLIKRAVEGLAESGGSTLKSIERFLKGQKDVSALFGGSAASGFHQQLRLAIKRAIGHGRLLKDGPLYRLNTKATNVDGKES
GGACGACA: -0.0159
ATGGTCAA: -0.163
CAAGCCGG: 0.216
CCTTCCGC: 0.239
AATAAAGG: -0.126
GCCTACGA: -0.032
ATCCCTGA: -0.197
TTCCTCAA: -0.0308
ACCAAACG: 0.0286
AAGATGAC: -0.115
CTGTGGCC: -0.00975
GGGTCAGA: -0.0406
CTATGAAC: -0.0955
ACTCCGTC: 0.111
GCAGGTAC: -0.0739
AGTGTCAC: -0.0283
ATTGCGGG: 0.232
CAAGCTTC: -0.0411
AAAGTTTA: 0.00602
AGCCAACG: -0.0121
GTCCTAAC: -0.0825
ACTAAGGA: -0.0449

Sample 2 — target: CCNB1, cyclin fold, Cln2 fusion (human); method: yeast growth competition, sequencing; matrix: yeast; notes: strong parent motif; relative to: not given; direction: higher = stronger binding; measurement: normalised enrichment score
Starting sequence: RBL2 docking peptide (human); STTRRRLFVENDS
STTRRRLFVPNDS [E10P]: 1.21
STTRRRLFVFNDS [E10F]: 0.275
STTRRRLFVENVS [D12V]: 0.309
STNRRRLFVENDS [T3N]: -0.184
STTRRRLWVENDS [F8W]: 0.622
STTRRRLFVENQS [D12Q]: 0.441
ATTRRRLFVENDS [S1A]: 1.33
STTRRRLFVENDW [S13W]: 2.04
STTRTRLFVENDS [R5T]: 0.777
STDRRRLFVENDS [T3D]: 0.697
STTRRGLFVENDS [R6G]: -0.121
ETTRRRLFVENDS [S1E]: 0.48
STTRRRLFQENDS [V9Q]: 0.152
STTQRRLFVENDS [R4Q]: 1.05
STTCRRLFVENDS [R4C]: 1.79
STTLRRLFVENDS [R4L]: -0.195
STTRIRLFVENDS [R5I]: 0.739
STTRRRLGVENDS [F8G]: 0.466
STTRRRLFWENDS [V9W]: 1.41
STTRARLFVENDS [R5A]: -0.283
STTRRRLFVERDS [N11R]: 0.945
DTTRRRLFVENDS [S1D]: 2.07
STTGRRLFVENDS [R4G]: -0.109
STTRRRLFVSNDS [E10S]: 1.03
STTRRRLFVENDL [S13L]: 0.0863

Sample 3 — method: competition protein-binding microarray; molecule type: double-stranded DNA, one strand shown; matrix: in vitro; concentration: 2 µM; added: Pho4 competitor, 0.05 µM; direction: higher = stronger binding; measurement: fluorescence intensity; constant ends, left off below: … GTCTTGATTCGCTTGACGCTGCTG
Target: Centromere-binding protein 1, full length, His-tagged (CBF1, Saccharomyces cerevisiae, UniProt P17106, residues 1-351)
UniProt P17106, sequence (whole entry, looked up): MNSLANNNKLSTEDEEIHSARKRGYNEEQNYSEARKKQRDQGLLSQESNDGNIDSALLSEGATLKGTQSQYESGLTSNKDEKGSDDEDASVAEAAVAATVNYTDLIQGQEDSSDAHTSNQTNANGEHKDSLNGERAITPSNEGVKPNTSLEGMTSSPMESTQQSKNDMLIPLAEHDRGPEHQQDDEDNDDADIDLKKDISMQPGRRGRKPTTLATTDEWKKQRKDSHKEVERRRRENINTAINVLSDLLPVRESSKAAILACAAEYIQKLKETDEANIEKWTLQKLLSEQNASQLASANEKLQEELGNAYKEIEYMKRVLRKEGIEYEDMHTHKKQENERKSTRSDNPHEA
Notes: whole 60-bp probe, lowest competitor level
TACGAAAGATGGAAACACATGCAGAGAATGTGGTCT: 119 a.u.
AAATTACTAAGTTTTCACGTGTGTTACCCCGTATGA: 609 a.u.
GCTATTGTATTTTATGGCGTGGGTAAAAATTCAATA: 102 a.u.
GGCGTTTCTGATCTTCATGTGGTCGGAGTGGAATTC: 84.7 a.u.
TGCGCAACAACTTTTCACGTGGGTTTATGTCTAGAA: 827 a.u.
TTATCTCAGTGGGTTTACGTGGGTATAGATTACGCT: 59.9 a.u.
TTGTTGATCCTGGTAGGCGTGGCCGTACCGCCATTG: 50.5 a.u.
TCTGACCCAGAATGGATACGTCCATACCGTAAGGAC: 56.2 a.u.
AAAGCGGTAATTTGTACTGTGGGTGCAGATATCTAT: 79.1 a.u.
CTAACGAAGGTTTGTTACGTGGGTGACAAGCCAAGT: 70.7 a.u.
GTAATATAGCTTTGCCACGTGCGATTTTTGGGGATA: 1370 a.u.
GATGAGGCCCTTATGTACGTGCAAATATATGTGCGA: 85.8 a.u.
GTTATAAGTGCTTTTCTCGTGCAAATCCCTGACACT: 85.3 a.u.
AAGTTGGTAAGCGACCACGTGATGGTGCTTTGGGTT: 4850 a.u.
TTTCGTGTAGCATCGCACGTCAGACATGGATGCAAC: 69.2 a.u.

Sample 4 — method: RNA Bind-n-Seq; molecule type: RNA; matrix: in vitro; concentration: 1 µM; notes: whole 134-nt RNA, ends assumed; added: 150 mM KCl; relative to: input library; direction: higher = stronger binding; measurement: log2 enrichment
Target: Ras GTPase-activating protein-binding protein 1, C-terminal RGG region (G3BP1, Homo sapiens, UniProt Q13283)
UniProt Q13283, sequence (whole entry, looked up): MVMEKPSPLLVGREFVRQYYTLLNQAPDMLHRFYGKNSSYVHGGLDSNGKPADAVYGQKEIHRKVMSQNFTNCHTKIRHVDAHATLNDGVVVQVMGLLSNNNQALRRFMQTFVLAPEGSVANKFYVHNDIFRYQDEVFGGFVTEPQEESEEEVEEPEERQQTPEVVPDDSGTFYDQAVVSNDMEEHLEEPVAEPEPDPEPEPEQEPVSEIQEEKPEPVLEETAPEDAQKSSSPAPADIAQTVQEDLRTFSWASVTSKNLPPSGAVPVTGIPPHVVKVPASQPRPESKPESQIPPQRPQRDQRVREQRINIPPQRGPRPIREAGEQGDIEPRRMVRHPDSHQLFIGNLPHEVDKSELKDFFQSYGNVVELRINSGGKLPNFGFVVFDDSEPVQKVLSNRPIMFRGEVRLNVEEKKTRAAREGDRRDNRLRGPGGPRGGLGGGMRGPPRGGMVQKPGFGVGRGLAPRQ
Constant ends, left off below: GGGAGUUCUACAGUCCGACGAUC … UGGAAUUCUCGGGUGUCAAGG
AAGUCCUGUGCUACACAUCGUAUGUACCGAAUCGGGCCCCCGGCCCCCGGCCCCCGGAAAGUAUUAUGUUACGCCGUUCGGAUCUGCACU: -1.61
UGUGCUACACAUCGUAUGUACCGAAUCGGGGAAAAAAAGGGGAAAAAGGGGAAAAAAAGGGGAAAGUAUUAUGUUACGCCGUUCGGAUCU: 0.333
GCAGGAAGUAAAUACAAAUGGAAAUGCUUCGGAUAGUGGCAGGGGUGGGGGUUGCUAAGGAAAGGGUGGGAUGGGAGUGGGUAAAGAGUU: 1.68
CUCCAGAAAGCAGUGGGGCCUGAGAUCACCAAGACAGACCUGGUCCCUGCCUUCCAGAACCUGAUGAAAGACUGUGAGGCCGAGGUGAGG: -1.21
ACUGAGGUACUGCCCUCCCCUGCCCCCUACCCUCUCCCUUGUCCCUCUACCCCGUUCCUCCCCUUCCCUCCAUUCCCUUUCCCCAACCUG: -0.0208
UAACUUUAGAGGAGGAUCUGAUGGAUAUGGCAGUGGACGUGGAUUUGGGGAUGGCUAAAAUGGGUAUGGAGGAGGACCUGGAGGUGGCAA: -0.499
GUCCUGUGCUACACAUCGUAUGUACCGAAUCGGGAAAAAAAGGGAAAGGGUUUUUGGGAAAGUAUUAUGUUACGCCGUUCGGAUCUGCAC: -0.127
CUGUGCUACACAUCGUAUGUACCGAAUCGGGAAAAAAAGGGUUUUUUUGGGUUUUUUUGGGAAAGUAUUAUGUUACGCCGUUCGGAUCUG: -1.92
AACUGGAAGAACAGACCCGUAGGGCUCUGGAACUUGAGCAGGAACGGAAGCGUGCCCAGAGCGAGGCUGAAAAGCUGGCCAAGGAGCGUC: -1.38
UAACUUUAGAGGAGGAUCUGAUGGAUAUGGCAGUGGACAUGGAUUUGGGGAUGGCUAUAAUGGGUAUGGAGGAGGACCUGGAGGUGGCAA: -1.08

Sample 5 — method: universal PBM; molecule type: double-stranded DNA, one strand shown; matrix: in vitro; concentration: not given; direction: higher = stronger binding; measurement: E-score
Target: Sal-like protein 4, full length isoform B (SALL4, Homo sapiens, UniProt Q9UJQ4-2, residues 1-616)
Notes: 8-mer, flanks averaged, mean of replicates
Target sequence (chain): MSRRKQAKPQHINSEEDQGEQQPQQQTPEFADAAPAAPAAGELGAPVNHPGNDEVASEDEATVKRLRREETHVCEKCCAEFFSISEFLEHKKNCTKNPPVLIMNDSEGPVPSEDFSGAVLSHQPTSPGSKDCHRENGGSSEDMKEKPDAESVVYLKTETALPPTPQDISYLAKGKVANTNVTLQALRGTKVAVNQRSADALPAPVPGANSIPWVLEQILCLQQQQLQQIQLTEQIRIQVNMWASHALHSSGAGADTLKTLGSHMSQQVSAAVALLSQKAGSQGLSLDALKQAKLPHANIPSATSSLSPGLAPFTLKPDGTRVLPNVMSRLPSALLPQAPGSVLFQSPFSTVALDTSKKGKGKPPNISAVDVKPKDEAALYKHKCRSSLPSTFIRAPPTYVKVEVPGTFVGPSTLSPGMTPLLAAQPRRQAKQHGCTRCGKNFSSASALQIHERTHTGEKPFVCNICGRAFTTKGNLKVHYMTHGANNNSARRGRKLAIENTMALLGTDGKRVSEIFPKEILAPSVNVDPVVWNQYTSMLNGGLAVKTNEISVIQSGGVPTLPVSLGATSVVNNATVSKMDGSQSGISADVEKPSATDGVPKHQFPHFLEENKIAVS
ATATCCAA: 0.23
GACGTTAA: 0.184
ATACTTGG: 0.082
GCAACACA: -0.0375
AGACACCC: -0.219
CTCAAAAA: 0.154
AAAGTTGT: 0.23
CGTTAAGA: 0.0428
ACAAACAA: 0.186
CGACCGAC: -0.209
AGGCATAT: 0.23
GCCGTAGA: -0.171
CACGTAAC: -0.0943
GTTATAAC: 0.234
ATTCGAGC: -0.111
AGTACTTC: 0.218
TACCTGAA: 0.2
GTAAAAAA: 0.241
GGGGAAAA: 0.0337
CCCCATCC: -0.178
ACCCATCC: -0.102
ATTGAAAG: 0.146
AACGGCAC: -0.164
CTCGTGTA: 0.07
GCCGACCC: -0.372

Some of these lines once more (sample 2):
STDRRRLFVENDS [T3D]: 0.697
STTRRGLFVENDS [R6G]: -0.121
ETTRRRLFVENDS [S1E]: 0.48
STTRRRLFQENDS [V9Q]: 0.152
STTQRRLFVENDS [R4Q]: 1.05
STTCRRLFVENDS [R4C]: 1.79
STTLRRLFVENDS [R4L]: -0.195
